Results from different studies.
Each line is one published result; not all experiments were run side by side. Values joined by “and” are separate records of one study, mostly repeats; a detail may differ. Numbers after ± are the reported error.

Structure (SMILES) | test | test system | conditions | scale | endpoint | value
CCCCC/C=C\C/C=C\CCCCCCCC(=O)OCC(COC(=O)CCC(OCCCCCCCC)OCCCCCCCC)COC(=O)OCCCN(CC)CC (stereo not drawn) |  |  | pH 5.5, formulated |  | zeta potential | 4.31 mV
CO[C@@H]1[C@H](O)[C@@H](CO)O[C@H]1n1c([N+](=O)[O-])nc2c(=O)[nH]c(N)nc21 | depurination, RP-HPLC | citrate-phosphate buffer 0.5 mM | 1177 min, pH 7, 37 °C |  | nucleoside remaining fraction | 0.713
O=C(O)c1cccc(CSc2nnc(-c3ccncc3)o2)c1 |  | octanol/buffer | pH 11, known kinase inactives set |  | logP | -0.73
COc1ccc2c3c([nH]c2c1)[C@H](CC(C)C)N1C(=O)[C@H](CC(=O)NC(C)C)NC(=O)[C@@H]1C3 |  | wild-type mouse, male, serum | oral, 100 mg/kg, 2 h |  | concentration | 40900 nM
FC(F)(F)c1ccc(CNc2ccc(Cc3c[nH]c4ncc(Cl)cc34)cn2)cn1 | measured: decreased appetite | patients with advanced solid tumours | oral, dose not given, grade 1 and 2, possibly related to drug |  | adverse event incidence | 30%
O=C(Nc1nc2cccc(-c3ccc(CN4CCS(=O)(=O)CC4)cc3)n2n1)C1CC1 | measured: gastrointestinal pain | human rheumatoid arthritis patients | oral, 200 mg once daily, 4 weeks, regardless of relatedness |  | treatment-emergent adverse events | 0%
CC(C)(C)c1ccc(O)c(CN(Cc2cc(C(C)(C)C)ccc2O)C2CCC(NC(N)=O)CC2)c1 (stereo not drawn) |  | C57BL/6 mice, male, brain | intraperitoneal, 10 mg/kg | baseline: 5 mg/kg dose | Cmax fold increase | 1.7 fold
CCCOc1ccc([C@H]2CNC(=O)N2c2ccc3[nH]cnc3c2)cc1 |  | human, elderly, fasted, cerebrospinal fluid | oral, 300 mg twice daily, capsule, 2 h after final dose, day 7, geometric mean |  | CSF concentration | 24.4 ng/mL
CCO[C@H]1CCN(Cc2c(OC)cc(C)c3[nH]ccc23)[C@H](c2ccc(C(=O)O)cc2)C1 |  | human moderate hepatic impairment, plasma | oral, 200 mg single dose, median |  | unbound AUCinf | 5060 ng·h/mL
O=C(O)CCc1cccc(O)c1O |  | human, cerebrospinal fluid | concentration not given, median |  | CSF concentration | 15.8 nM
COc1cc(C(=O)N2CCC3(CC2)CC(=O)c2c(cnn2C(C)C)C3)cc(-c2ccc(C(=O)O)cc2)n1 | measured: direct LDL cholesterol | human, fasting serum | 10 mg every 12 h, day 13, adjusted geometric mean | baseline: baseline | percentage change from baseline | -2.4%
C[C@@H](N)C1CCN(S(=O)(=O)c2cccc3cnccc23)CC1 |  | healthy volunteers, fasted, plasma | oral, 150 mg |  | tmax | 0.5 h
COc1ccc(C(O)COc2ccc(-c3csc(-c4ccc(OCC(O)c5ccc(OC)c(OC)c5)cc4)n3)cc2)cc1OC (stereo not drawn) |  | C57BL/6J mice, plasma | oral, 10 mg/kg |  | tlast | 48 h
CCOc1c([C@H](C)n2nc(C)c3c(N)ncnc32)cc(Cl)c(F)c1[C@@H]1CNC(=O)C1 |  | patients, monotherapy | oral, 10 mg once daily, cycle 1 day 1 |  | Cmax geometric mean | 646 nM
COc1ccc([C@@H](O)c2cc(-c3ncnc4cc(N5CCOCC5)ccc34)c(F)cc2Cl)nn1 |  | locally advanced rectal cancer patients | 100 mg, with: capecitabine and radiotherapy |  | decreased appetite TEAE incidence | 17%
NC[C@@]1(CC(=O)O)[C@@H]2CC[C@H]3C[C@@H]2[C@@H]1C3 |  | human, moderate renal impairment, plasma | geometric mean |  | unbound Cmax | 367 ng/mL
CC(C)(C(=O)N1CCOc2c(C#N)cncc2C1)C(F)F | measured: Ecchymosis | human | oral, 15 mg twice daily, 14 days, multiple ascending dose |  | subjects with adverse event | 0%
Cc1cc(NC2CCN(C(=O)OC3CCN(C(=O)/C=C/CN(C)C)C3)CC2)n2ncc(C(C)C)c2n1 (stereo not drawn) | CTCAE v4.0, measured: Diarrhea | patients with advanced solid tumours | oral, dose not given, all schedules, grade 3 or higher |  | patients with TEAE | 4%
Cc1ccc([C@@H]2O[C@H](CO)[C@@H](O)[C@H](O)[C@H]2O)cc1Cc1ccc(-c2ccc(F)cc2)s1 |  | Japanese type 2 diabetes patients | 100 mg, day 17, 24 h urine collection | baseline: baseline | urinary sodium excretion change | -73.5 mEq

Structure (SMILES) | test | test system | conditions | scale | endpoint | value
CNCc1ccc(-c2[nH]c3cc(F)cc4c3c2CCNC4=O)cc1 |  | patients | oral, 840 mg twice daily, all grades |  | decreased appetite incidence | 33.3%
N#Cc1ccc2c(c1)[C@H]1CCCN(C(=O)c3ccc4[nH]cnc4c3)[C@H]1C2 |  | human | 160 mg, day 7 |  | median ACTH level | 6.2 pmol/L
NC1(C(=O)N[C@@H](CCO)c2ccc(Cl)cc2)CCN(c2nc[nH]c3nccc2-3)CC1 |  | human, plasma | oral, 400 mg twice daily, with: enzalutamide 160 mg daily |  | dose-normalised Cmax | 563 ng/mL and 447 ng/mL and 369 ng/mL and 586 ng/mL and 889 ng/mL
CNCCOC12CC3(C)CC(C)(CC(Cn4ncc(-c5ccc(N6CCc7cccc(C(=O)Nc8nc9ccccc9s8)c7C6)nc5C(=O)O)c4C)(C3)C1)C2 |  | beagle dog, male, anaesthetised | intravenous bolus, 0.03 mg/kg, 30 min | baseline: baseline | dP/dt at 50 change | 9%
COc1ncc(-c2nc3c(n2C(C)C)[C@H](c2ccc(Cl)cc2)N(c2cc(Cl)cn(C)c2=O)C3=O)c(OC)n1 |  | human patients, plasma | oral, 200 mg, high-dose arm, cycle 2 day 1 |  | median Tmax | 3.9 h
CCc1cc(C(=O)NC)c2nccc(N3CCc4c(cc(Cn5ccnc5)cc4-c4cn(C)nc4C(F)(F)F)C3=O)c2c1 |  | Sprague Dawley rats | oral, 50 mg/kg once daily, 7 days |  | serum TG level | 1 ± 0.59 mmol/L
CCn1cc(C)c2c([C@H](N)c3ccc(C(F)(F)F)nc3)n(C)nc2c1=O |  | rat Sprague-Dawley male, blood | intravenous, 1 mg/kg |  | CLint,u | 17.1 mL/min/kg
COc1cc2nccc(Oc3ccc(NC(=O)c4cc5c(n(-c6ccccc6)c4=O)CCCC5=O)nc3)c2cc1OC |  | relapsed or refractory AML | oral, all dose levels |  | grade ≥3 Hypotension patients | 15%
CC(C)C[C@H](NC(=O)[C@@H](Cc1c[nH]c2ccccc12)NC(=O)[C@H](Cc1ccc(O)cc1)NC(=O)[C@H](CO)NC(=O)[C@H](Cc1c[nH]c2ccccc12)NC(=O)[C@H](Cc1c[nH]cn1)NC(=O)[C@@H]1CCC(=O)N1)C(=O)N[C@@H](CCCNC(=N)N)C(=O)N1CCC[C@H]1C(=O)NCC(N)=O |  | Chinese CPP girls | intramuscular, 22.5 mg, 12 months, day 1, month 6 |  | patients, drug-related Dermatitis TEAEs | 0%
OC[C@H]1O[C@@H](c2ccc(Cl)c(Cc3ccc(O[C@H]4CCOC4)cc3)c2)[C@H](O)[C@@H](O)[C@@H]1O |  | Japanese type 1 diabetes patients, blood | 25 mg, day 28 | baseline: baseline | change in uric acid | -0.29 µmol/L
NC[C@H](NC(=O)c1ccc(C#Cc2ccccc2)cc1)C(=O)NO |  | octanol/buffer | pH 11 |  | logP | 1.02
C[C@@H]1CCO[C@H]2Cn3cc(C(=O)NCc4ccc(F)cc4F)c(=O)c(O)c3C(=O)N12 |  | Tat+ transgenic mouse, hippocampus | subcutaneous osmotic pump, dose not given, 5 d |  | drug concentration | 5800 ± 1100 ng/g
C[C@@H](O)[C@H](NC(=O)c1ccc(-c2ccc(Br)cc2)cc1)C(=O)NCC1(C)NC(=O)NC1=O (stereo partly drawn) |  | octanol/buffer | pH 11 |  | logP | 0.99
CC1(C)CCC(CN2CCN(c3ccc(C(=O)NS(=O)(=O)c4ccc(NCC5CCOCC5)c([N+](=O)[O-])c4)c(Oc4cnc5[nH]ccc5c4)c3)CC2)=C(c2ccc(Cl)cc2)C1 | UPLC-MS/MS | patients | oral, dose not given, 6 h, with: triazole antifungals |  | dose-normalised C6 (C6/D) | 0.319 ± 0.196
CCN1/C(=C/C(C)=O)Sc2ccc(F)cc21 |  | cynomolgus monkey | oral, 10 mg/kg, 2 h post-dose |  | mean blood pressure | 88 ± 5 mmHg
Cc1cccc(CNC(=O)c2cn(CCNC(=O)c3ccccc3Sc3c([N+](=O)[O-])ncn3C)c3cc4c(cc3c2=O)OCO4)n1 |  | cynomolgus monkey, whole blood | 1 µM, 0.5 h |  | remaining compound | 95.5%
Cc1cc(NC(=O)c2cccc(NC(=O)/C=C/CN(C)C)c2)ccc1Nc1nccc(-c2cccnc2)n1 | metabolic stability | Wistar rat, male, primary hepatocytes | 1 µM, 180 min |  | compound remaining | 33.5%
CO[C@H]1C[C@@H]2CC[C@@H](C)[C@@](O)(O2)C(=O)C(=O)N2CCCC[C@H]2C(=O)O[C@H]([C@H](C)C[C@@H]2CC[C@@H](O)[C@H](OC)C2)CC(=O)[C@H](C)/C=C(\C)[C@@H](O)[C@@H](OC)C(=O)[C@H](C)C[C@H](C)/C=C/C=C/C=C/1C |  | healthy adult horses | oral, 0.06 mg/kg, 6 h |  | rectal temperature | 37.5 ± 0.4 °C
CCn1cc(C(=O)N2CCOCC2)c(=O)c2cc(NC3Cc4ccccc4C3)cnc21 |  | human, fed | oral suspension, 300 mg/day twice daily, day 8, arithmetic mean |  | half-life | 5.49 h

Structure (SMILES) | test | test system | conditions | scale | endpoint | value
NCc1cc2c(cc1F)C(=O)N(C1CCC(=O)NC1=O)C2 (stereo not drawn) |  | male cynomolgus monkey, whole blood | 3 h |  | remaining compound | < 1%
CNC(=O)c1ccc(-c2cnc3ncc(Cc4ccc5ncccc5c4)n3n2)cc1F |  | Japanese patients | oral, 400 mg twice daily, any grade |  | Seizure patients | 1%
COc1ccc2c(C)nc(Nc3nc(C)cc(O)n3)nc2c1 |  | octanol/buffer | pH 11, known kinase inactives set |  | logP | 1.61
OC[C@H]1OC(O)[C@H](O)[C@@H](O)[C@@H]1O (stereo partly drawn) |  | aqueous solution | 30 mM, with: glucosamine |  | osmolality | 26 mOsmol/kg
O=S(=O)(O)Oc1c(O)cccc1O |  | human, cerebrospinal fluid | concentration not given, mean |  | CSF concentration | 2.2 nM
CNC(=O)c1ccc(-c2cnc3ncc(Cc4ccc5ncccc5c4)n3n2)cc1F |  | HCC patients | oral, 600 mg twice daily, all grades RP2D expansion |  | ALT increased incidence | 27%
Cn1cnc2c(F)c(Nc3ccc(Br)cc3Cl)c(C(=O)NOCCO)cc21 | population PK model | human, plasma | oral, zero-order absorption model, fasted |  | zero-order absorption duration | 0.65 h
O=C(COc1ccc(Cl)cc1)NC12CC(c3nnc([C@H]4C[C@@H](OC(F)(F)F)C4)o3)(C1)C2 | measured: Myalgia | healthy humans, both sexes | oral, dose not given, single ascending dose, fasted | baseline: subjects | treatment-emergent adverse events | 5.6%
O=C(Cc1ccc(OC(F)(F)F)cc1)Nc1cc(C2CC2)[nH]n1 |  | octanol/buffer, 40 mM buffer | pH 11 |  | logP | 3.77
Cc1ccc(Sc2ccccc2N2CCNCC2)c(C)c1 | measured: Headache | healthy adult women | oral, 10 mg daily, 12 days |  | participants with TEAE | 33.3%
COc1cc(NC(=O)c2ccc3cc(C(=N)N)ccc3c2)cc(OC(C)C)c1 |  | octanol/buffer | pH 11, urokinase ligand set |  | logP | 3.16
OCc1nc2ccc(NCc3ccc(C(F)(F)F)cc3)cc2[nH]1 |  | human liver S9 | 1 µM, pH 7.4 |  | scaled intrinsic clearance | 644 mL/min
CC(C)n1c(Nc2cccnc2)nc2cnc(Nc3ccc(N4CCN(C)CC4)cc3)nc21 |  | human, male, plasma | oral, dose not given, with: rifampin | baseline: without rifampin | decrease in AUC | ~30%
CCOCc1nc(O)c(-c2nnc(Cc3ccc(Cl)cn3)o2)c(O)c1-c1c(OC)cccc1OC |  | anaesthetized rats, plasma | intravenous infusion, 10 µg/kg/min for 15 min, 30 min washout |  | plasma concentration | 826 ± 16 nM
CC[N+]([O-])(CC)CCNC(=O)c1c(C)[nH]c(/C=C2\C(=O)Nc3ccc(F)cc32)c1C |  | human, serum | 25 mg maintenance dose |  | serum concentration | 0.23 ng/mL
O=C(O)CCC(=O)O.[2H]C([2H])([2H])Oc1cc(C)c2[nH]ccc2c1CN1CC[C@@H](C2CC2)C[C@H]1c1ccc(C(=O)O)cc1 |  | healthy Chinese subjects | 200 mg, single ascending dose |  | TEAE sinus bradycardia | 16.7%
C[C@H]1CN(C(=O)CC#N)[C@]12CCN(c1ncnc3[nH]ccc13)C2 |  | healthy human | oral, 3 mg single |  | subjects with Fatigue | 0%
O=S(=O)(NCc1ccccn1)c1ccc(Cl)c(Cl)c1Cl |  | octanol/buffer | pH 11, known kinase inactives set |  | logP | 2.19
CC(=O)c1ccc([C@H]2C[C@@]3(C)[C@@H](CC[C@@]3(O)C(F)(F)C(F)(F)F)[C@@H]3CCC4=CC(=O)CCC4=C32)cc1 |  | human, pooled serum | oral, 200 mg, day 1, 8 h |  | serum concentration | 9.4 ng/mL

A few entries again:
Structure (SMILES) | test | test system | conditions | scale | endpoint | value
O=S(=O)(O)Oc1c(O)cccc1O |  | human, cerebrospinal fluid | concentration not given, mean |  | CSF concentration | 2.2 nM
CCc1cc(C(=O)NC)c2nccc(N3CCc4c(cc(Cn5ccnc5)cc4-c4cn(C)nc4C(F)(F)F)C3=O)c2c1 |  | Sprague Dawley rats | oral, 50 mg/kg once daily, 7 days |  | serum TG level | 1 ± 0.59 mmol/L
Cn1cnc2c(F)c(Nc3ccc(Br)cc3Cl)c(C(=O)NOCCO)cc21 | population PK model | human, plasma | oral, zero-order absorption model, fasted |  | zero-order absorption duration | 0.65 h
C[C@@H](N)C1CCN(S(=O)(=O)c2cccc3cnccc23)CC1 |  | healthy volunteers, fasted, plasma | oral, 150 mg |  | tmax | 0.5 h
OC[C@H]1O[C@@H](c2ccc(Cl)c(Cc3ccc(O[C@H]4CCOC4)cc3)c2)[C@H](O)[C@@H](O)[C@@H]1O |  | Japanese type 1 diabetes patients, blood | 25 mg, day 28 | baseline: baseline | change in uric acid | -0.29 µmol/L
OC[C@H]1OC(O)[C@H](O)[C@@H](O)[C@@H]1O (stereo partly drawn) |  | aqueous solution | 30 mM, with: glucosamine |  | osmolality | 26 mOsmol/kg
COc1ncc(-c2nc3c(n2C(C)C)[C@H](c2ccc(Cl)cc2)N(c2cc(Cl)cn(C)c2=O)C3=O)c(OC)n1 |  | human patients, plasma | oral, 200 mg, high-dose arm, cycle 2 day 1 |  | median Tmax | 3.9 h
O=C(Nc1nc2cccc(-c3ccc(CN4CCS(=O)(=O)CC4)cc3)n2n1)C1CC1 | measured: gastrointestinal pain | human rheumatoid arthritis patients | oral, 200 mg once daily, 4 weeks, regardless of relatedness |  | treatment-emergent adverse events | 0%
